Measurements pooled from the literature.
Compare with care: the assays were run in different laboratories. Numbers after ± are the reported error.
U2AF2: U2AF2 148-342 (Homo sapiens, UniProt P26368)
Chain of UniProt P26368 (whole entry, looked up): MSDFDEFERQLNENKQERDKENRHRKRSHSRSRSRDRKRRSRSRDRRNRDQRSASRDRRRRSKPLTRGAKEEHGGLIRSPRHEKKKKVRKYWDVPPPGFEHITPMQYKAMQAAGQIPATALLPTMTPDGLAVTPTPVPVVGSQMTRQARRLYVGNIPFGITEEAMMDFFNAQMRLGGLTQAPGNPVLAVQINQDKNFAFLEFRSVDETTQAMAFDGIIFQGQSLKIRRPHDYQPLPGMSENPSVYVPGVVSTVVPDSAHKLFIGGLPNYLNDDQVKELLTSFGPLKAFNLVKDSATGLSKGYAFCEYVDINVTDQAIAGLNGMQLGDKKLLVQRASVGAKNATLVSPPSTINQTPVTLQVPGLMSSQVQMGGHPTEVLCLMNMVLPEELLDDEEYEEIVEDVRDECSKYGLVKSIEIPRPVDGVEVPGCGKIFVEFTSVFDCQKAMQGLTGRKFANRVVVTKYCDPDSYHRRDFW
CBF1: CBF1 1-351 (Saccharomyces cerevisiae, UniProt P17106)
Chain of UniProt P17106 (whole entry, looked up): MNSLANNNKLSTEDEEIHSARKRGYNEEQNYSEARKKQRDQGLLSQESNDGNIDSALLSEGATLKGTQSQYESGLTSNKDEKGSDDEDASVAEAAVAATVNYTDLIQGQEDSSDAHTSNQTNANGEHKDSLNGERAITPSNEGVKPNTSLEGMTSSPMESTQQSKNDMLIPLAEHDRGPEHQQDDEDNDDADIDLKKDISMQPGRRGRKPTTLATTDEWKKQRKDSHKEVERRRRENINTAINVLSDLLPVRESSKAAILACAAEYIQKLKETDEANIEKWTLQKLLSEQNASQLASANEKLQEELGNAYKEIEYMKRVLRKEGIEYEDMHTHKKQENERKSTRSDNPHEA
TOA1/TOA2 1-286; 1-122: TOA1/TOA2 1-286; 1-122 (Saccharomyces cerevisiae)
TGM2: TGM2 2-687 (Homo sapiens, UniProt P21980)
Chain of UniProt P21980 (whole entry, looked up): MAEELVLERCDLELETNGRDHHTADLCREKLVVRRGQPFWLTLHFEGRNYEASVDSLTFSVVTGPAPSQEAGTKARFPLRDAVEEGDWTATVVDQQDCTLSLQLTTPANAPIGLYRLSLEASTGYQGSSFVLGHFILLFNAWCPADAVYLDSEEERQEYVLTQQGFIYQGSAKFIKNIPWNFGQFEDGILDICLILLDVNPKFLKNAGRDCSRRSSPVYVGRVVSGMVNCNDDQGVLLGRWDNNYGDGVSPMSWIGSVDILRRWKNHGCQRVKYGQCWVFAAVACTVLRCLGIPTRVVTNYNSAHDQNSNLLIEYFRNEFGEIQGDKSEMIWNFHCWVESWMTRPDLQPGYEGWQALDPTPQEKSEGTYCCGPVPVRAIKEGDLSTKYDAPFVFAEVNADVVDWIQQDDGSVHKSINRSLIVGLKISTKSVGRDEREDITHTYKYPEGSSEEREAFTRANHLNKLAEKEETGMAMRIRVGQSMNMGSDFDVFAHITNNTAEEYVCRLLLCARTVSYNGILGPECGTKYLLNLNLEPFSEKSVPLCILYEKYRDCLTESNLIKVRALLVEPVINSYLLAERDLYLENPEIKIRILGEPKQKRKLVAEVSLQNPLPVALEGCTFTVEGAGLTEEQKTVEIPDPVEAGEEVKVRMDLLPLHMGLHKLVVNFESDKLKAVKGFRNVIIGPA
APOBEC3A full length assumed E72A: APOBEC3A full length assumed E72A (Homo sapiens, UniProt P31941)
SUA7 full length assumed: SUA7 full length assumed (Saccharomyces cerevisiae, UniProt P29055)
Chain of UniProt P29055 (whole entry, looked up): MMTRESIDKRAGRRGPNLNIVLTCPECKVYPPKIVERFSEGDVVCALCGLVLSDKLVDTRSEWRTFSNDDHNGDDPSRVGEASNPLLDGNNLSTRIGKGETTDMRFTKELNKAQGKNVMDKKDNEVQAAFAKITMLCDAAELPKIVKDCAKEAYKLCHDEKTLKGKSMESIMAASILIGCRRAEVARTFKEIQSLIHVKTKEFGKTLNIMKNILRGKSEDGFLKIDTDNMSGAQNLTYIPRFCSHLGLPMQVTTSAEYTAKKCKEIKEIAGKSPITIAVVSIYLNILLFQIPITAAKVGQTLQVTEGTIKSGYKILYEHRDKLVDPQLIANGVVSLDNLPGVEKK
SPT15 full length assumed: SPT15 full length assumed (Saccharomyces cerevisiae, UniProt P13393)
Chain of UniProt P13393 (whole entry, looked up): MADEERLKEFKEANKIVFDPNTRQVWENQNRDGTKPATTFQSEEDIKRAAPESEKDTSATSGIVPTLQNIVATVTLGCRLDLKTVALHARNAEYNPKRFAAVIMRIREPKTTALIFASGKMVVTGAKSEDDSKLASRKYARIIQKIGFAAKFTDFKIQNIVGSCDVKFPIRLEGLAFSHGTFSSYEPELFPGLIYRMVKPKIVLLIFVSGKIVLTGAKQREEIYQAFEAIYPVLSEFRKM
PHO4: PHO4 1-312 (Saccharomyces cerevisiae, UniProt P07270)
Chain of UniProt P07270 (whole entry, looked up): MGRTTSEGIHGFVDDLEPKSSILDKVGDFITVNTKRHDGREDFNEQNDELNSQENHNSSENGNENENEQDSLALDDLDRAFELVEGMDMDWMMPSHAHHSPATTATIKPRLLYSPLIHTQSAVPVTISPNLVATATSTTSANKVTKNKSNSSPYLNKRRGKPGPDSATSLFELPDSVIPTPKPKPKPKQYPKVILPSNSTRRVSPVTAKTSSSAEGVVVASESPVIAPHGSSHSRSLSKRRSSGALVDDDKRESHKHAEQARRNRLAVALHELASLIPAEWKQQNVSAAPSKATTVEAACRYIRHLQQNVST
T1: TOA1/TOA2 1-286; 1-122 (Saccharomyces cerevisiae); chain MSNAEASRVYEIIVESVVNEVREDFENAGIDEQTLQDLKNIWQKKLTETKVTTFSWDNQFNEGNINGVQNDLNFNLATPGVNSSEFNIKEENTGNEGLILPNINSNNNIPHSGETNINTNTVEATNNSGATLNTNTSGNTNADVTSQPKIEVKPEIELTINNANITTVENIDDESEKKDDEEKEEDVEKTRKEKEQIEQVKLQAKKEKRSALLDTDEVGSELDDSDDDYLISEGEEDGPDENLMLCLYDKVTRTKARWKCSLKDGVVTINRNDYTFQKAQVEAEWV; chain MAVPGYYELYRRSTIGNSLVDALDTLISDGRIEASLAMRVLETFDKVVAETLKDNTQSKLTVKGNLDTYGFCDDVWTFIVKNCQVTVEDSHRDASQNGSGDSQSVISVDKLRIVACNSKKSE
B1: human ECM1; sequence looked up; chain ASEGGFTATGQRQLRPEHFQEVGYAAPPSPPLSRSLPMDHPDSSQHGPPFEGQSQVQPPPSQEATPLQQEKLLPAQLPAEKEVGPPLPQEAVPLQKELPSLQHPNEQKEGTPAPFGDQSHPEPESWNAAQHCQQDRSQGGWGHRLDGFPPGRPSPDNLNQICLPNRQHVVYGPWNLPQSSYSHLTRQGETLNFLEIGYSRCCHCRSHTNRLECAKLVWEEAMSRFCEAEFSVKTRPHWCCTRQGEARFSCFQEEAPQPHYQLRACPSHQPDISSGLELPFPPGVPTLDNIKNICHLRRFRSVPRNLPATDPLQRELLALIQLEREFQRCCRQGNNHTCTWKAWEDTLDKYCDREYAVKTHHHLCCRHPPSPTRDECFARRAPYPNYDRDILTIDIGRVTPNLMGHLCGNQRVLTKHKHIPGLIHNMTARCCDLPFPEQACCAEEEKLTFINDLCGPRRNIWRDPALCCYLSPGDEQVNCFNINYLRNVALVSGDTENAKGQGEQGSTGGTNISSTSEPKEE
Chain of UniProt O61735 (whole entry, looked up): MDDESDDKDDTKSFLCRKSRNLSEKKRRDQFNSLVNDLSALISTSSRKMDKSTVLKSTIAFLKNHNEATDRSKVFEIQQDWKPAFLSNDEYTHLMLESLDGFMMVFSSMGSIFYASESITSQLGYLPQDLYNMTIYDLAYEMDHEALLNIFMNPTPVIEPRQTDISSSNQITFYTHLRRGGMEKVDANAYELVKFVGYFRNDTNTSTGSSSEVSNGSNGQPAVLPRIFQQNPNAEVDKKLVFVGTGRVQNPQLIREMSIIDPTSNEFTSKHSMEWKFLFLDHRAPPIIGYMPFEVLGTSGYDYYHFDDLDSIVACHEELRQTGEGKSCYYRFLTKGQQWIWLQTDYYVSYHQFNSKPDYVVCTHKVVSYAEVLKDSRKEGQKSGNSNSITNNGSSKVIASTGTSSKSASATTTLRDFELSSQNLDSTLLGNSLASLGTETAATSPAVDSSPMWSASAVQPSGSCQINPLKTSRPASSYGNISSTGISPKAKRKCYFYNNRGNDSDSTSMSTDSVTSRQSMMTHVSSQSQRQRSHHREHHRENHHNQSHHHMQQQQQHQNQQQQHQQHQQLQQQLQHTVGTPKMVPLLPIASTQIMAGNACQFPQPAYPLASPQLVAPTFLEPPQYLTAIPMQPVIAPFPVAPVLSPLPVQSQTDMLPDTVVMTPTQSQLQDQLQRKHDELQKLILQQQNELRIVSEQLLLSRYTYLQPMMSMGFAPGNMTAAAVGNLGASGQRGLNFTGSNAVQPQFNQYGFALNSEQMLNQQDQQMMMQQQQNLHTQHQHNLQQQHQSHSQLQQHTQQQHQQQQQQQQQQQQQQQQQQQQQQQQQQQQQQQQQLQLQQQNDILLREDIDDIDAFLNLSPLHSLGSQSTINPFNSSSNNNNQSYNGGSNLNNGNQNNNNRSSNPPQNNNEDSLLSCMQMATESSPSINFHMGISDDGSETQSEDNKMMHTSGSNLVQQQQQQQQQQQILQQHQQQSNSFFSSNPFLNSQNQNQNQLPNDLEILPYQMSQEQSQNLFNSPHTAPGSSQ

With `GCUUUCCCU (ssRNA)` the Kd was 2590 nM (U2AF2; sequencing of bound RNA; RNA; motif only).
`CAATACACTGTTATCAGACACACGTGTCGCGCTACTCGTTCGGTTATCCGGCGGTATGAC (dsDNA)` has a Kd of 184 ± 10 nM (CBF1; MITOMI; double-stranded DNA, one strand shown; not purified).
`DNA 1 GATCGATCGATCGATCGATCGATCGATCGATCGATTCAATTCAATCGGTCC / DNA 2 GGACCGATTGACTTGAATCGATCGATCGATCGATCGATCGATCGATCGATC (dsDNA; 5'-amino-C6 primer)` gave a Kd of 117 ± 60.5 nM (T1, TOA1/TOA2 1-286; 1-122 (Saccharomyces cerevisiae); array; double-stranded DNA; TFIIA alone).
`GGGAGCAGGAGAGAGGUCAGAUGAGGGGGCAAAUUGGAAACCCGGGGUUCUAACCUAUGCGUGCUAGUGUGA (ssRNA; 2'-fluoro pyrimidines)` gave a relative binding of 44.6 RU (TGM2; SPR; RNA; together with: MgCl2 5 mM; higher = more binding).
The Kd of `CCACUCUUU (ssRNA)` is reported as 690 nM (U2AF2; sequencing of bound RNA; RNA; motif only).
`ATTATGUCGTTGGATTTA (ssDNA; single-stranded, dU at 7)` has an IC50 of 500 ± 40 nM (APOBEC3A full length assumed E72A; competitive fluorescence polarization; single-stranded DNA).
The Kd of `DNA 1 GATTTAATATTAACTTATATATGTAAACTTATTTATCAATTCAATCGGTCC / DNA 2 GGACCGATTGACTTGATAAATAAGTTTACATATATAAGTTAATATTAAATC (dsDNA; 5'-amino-C6 primer)` is reported as 1.71 ± 0.39 nM (SUA7 full length assumed; array; double-stranded DNA; TFIIB alone).
With `GGGTTGCGGCCGCTTGGG (dsDNA; blunt, 5'-phosphate)` the relative affinity was 1.6 fold (PARP1 full length assumed W589A (Homo sapiens, UniProt P09874); stopped-flow fluorescence anisotropy; double-stranded DNA, one strand shown; reference: wild type, lower = weaker affinity).
`B1 (human ECM1)` — result for “log2 fold change”: -0.21 (PP6C (human); co-immunoprecipitation, IP-MS; CYB5R4 knockout cells; concentration not given; reference: CYB5R4 knockout over parental).
With `TCCTGAAGGGGCACCTATAAAAGGTCCTATCGTCGTCAAGTCAATCGGTCC (dsDNA; 5'-amino-C6 primer)` the Kd was 1.81 ± 0.06 nM (SPT15 full length assumed; array; double-stranded DNA, one strand shown; TBP alone).
`AUCCUACUU (ssRNA)` has a Kd of 380 nM (U2AF2; sequencing of bound RNA; RNA; motif only).
With `GGGAGCAGGAGAGAGGUCAGAUGGUCGAGAUUUUGAGGGUUCUCCGCUCCAGGCCUAUGCGUGCUAGUGUGA (ssRNA; 2'-fluoro pyrimidines)` the relative binding was 85.1 RU (TGM2; SPR; RNA; together with: MgCl2 5 mM; higher = more binding).
For `ATTATGTCGTTGGATTTA (ssDNA; single-stranded)`, the IC50 was 400 ± 40 nM (APOBEC3A full length assumed E72A; competitive fluorescence polarization; single-stranded DNA).
The Kd of `CTGCTCCGTCCGCCTTCGAGGAGAGGTCGGCATCTTCAAGTCAATCGGTCC (dsDNA; 5'-amino-C6 primer)` is reported as 13.8 ± 0.97 nM (SPT15 full length assumed; array; double-stranded DNA, one strand shown; TBP alone).
With `CCAUGGAUU (ssRNA)` the Kd was 5910 nM (U2AF2; sequencing of bound RNA; RNA; motif only).
`GGGAGCAGGAGAGAGGUCAGAUGGUACGAGAUUCUGAGGGUUCUUUUUGCACCCUAUGCGUGCUAGUGUGA (ssRNA; 2'-fluoro pyrimidines)` gave a relative binding of 135 RU (TGM2; SPR; RNA; together with: MgCl2 5 mM; higher = more binding).
The Kd of `CAATACACTGTTATCAGACACACGTGTCGAGCTACTCGTTCGGTTATCCGGCGGTATGAC (dsDNA)` is reported as 151 ± 3 nM (PHO4; MITOMI; double-stranded DNA, one strand shown; not purified).
The K1/2 of `CCGCCGCTCACGTGGCGAACT (dsDNA)` is reported as 270 nM (Clk 1-71 (Drosophila melanogaster, UniProt O61735); BLI; double-stranded DNA, one strand shown).
The Kd of `GTTCCTGAAGGGGGGGCTATAAACGGGGGTGGGGGTCAAGTCAATCGGTCC (dsDNA; 5'-amino-C6 primer)` is reported as 1.03 ± 0.04 nM (SPT15 full length assumed; array; double-stranded DNA, one strand shown; TBP alone).
`CAAAUGUUG (ssRNA)` gave a Kd of 8470 nM (U2AF2; sequencing of bound RNA; RNA; motif only).
The relative binding of `GGGAGCAGGAGAGAGGUCAGAUGGUACUUUAGACAACUGAGGGUUCUCUUAUUCCUAUGCGUGCUAGUGUGA (ssRNA; 2'-fluoro pyrimidines)` is reported as 134 RU (TGM2; SPR; RNA; together with: MgCl2 5 mM; higher = more binding).
With `TTGTGCTACGGTCTCTCCACCCCCTGCTGCTGCTGTCAAGTCAATCGGTCC (dsDNA; 5'-amino-C6 primer)` the Kd was 0.81 ± 0.5 nM (SUA7 full length assumed; array; double-stranded DNA, one strand shown; TFIIB alone).
The Kd of `CAATACACTGTTATCAGACACACGTGTCGATCTACTCGTTCGGTTATCCGGCGGTATGAC (dsDNA)` is reported as 139 ± 4 nM (PHO4; MITOMI; double-stranded DNA, one strand shown; not purified).
For `UUUUAAAUU (ssRNA)`, the Kd was 1540 nM (U2AF2; sequencing of bound RNA; RNA; motif only).
`colistin` gave an MIC of ≤ 0.5 µg/mL (Acinetobacter baumannii; broth microdilution; clinical isolate RKI-No_584/16).
For `AGUUUUAAG (ssRNA)`, the Kd was 3360 nM (U2AF2; sequencing of bound RNA; RNA; motif only).
Under “log2 fold change”, `POTE ankyrin domain J (human)` is recorded as -0.59 (CYB5R4 knockout human cells; PP6 interaction, 3xFLAG-PP6C IP-MS; concentration not given; reference: CYB5R4 KO over parental).
For `GGGAGCAGGAGAGAGGUCAGAUGAACAAGAGAUGGUAGGCCUACGUAAUGUUUCCUAUGCGUGCUAGUGUGA (ssRNA; 2'-fluoro pyrimidines)`, the relative binding was 128 RU (TGM2; SPR; RNA; together with: MgCl2 5 mM; higher = more binding).
With `CAUUUGUAC (ssRNA)` the Kd was 7600 nM (U2AF2; sequencing of bound RNA; RNA; motif only).
With `CAATACACTGTTATCCGACACACGTGTCGAGCTACTCGTTCGGTTATCCGGCGGTATGAC (dsDNA)` the Kd was 121 ± 3 nM (PHO4; MITOMI; double-stranded DNA, one strand shown; not purified).
`AUUAUGUCGUUGGAUUUA (mixed DNA/RNA; single-stranded, dU at 7, rest RNA)` has an IC50 of 41000 ± 24000 nM (APOBEC3A full length assumed E72A; competitive fluorescence polarization).
`GGGAGCAGGAGAGAGGUCAGAUGAAACGAGAGAUGUAGCCUUUCUCGAAUUCACCUAUGCGUGCUAGUGUGA (ssRNA; 2'-fluoro pyrimidines)` has a relative binding of -7.7 RU (TGM2; SPR; RNA; together with: MgCl2 5 mM; higher = more binding).
`TTGTGCTACGGTCTCTCCACCCCCTGCTGCTGCTGTCAAGTCAATCGGTCC (dsDNA; blunt; 5'-amino-C6 primer)` gave a Kd of 1.6 ± 0.5 nM (SPT15 full length assumed; EMSA; double-stranded DNA, one strand shown).
With `CAATACACTGTTATCAGACACACGTGTAGAGCTACTCGTTCGGTTATCCGGCGGTATGAC (dsDNA)` the Kd was 364 ± 24 nM (CBF1; MITOMI; double-stranded DNA, one strand shown; not purified).
For `GGGAGCAGGAGAGAGGUCAGAUGGCGGAGAUUCUGAGGGUUCUCCUGUUCCAGCCUAUGCGUGCUAGUGUGA (ssRNA; 2'-fluoro pyrimidines)`, the relative binding was 116 RU (TGM2; SPR; RNA; together with: MgCl2 5 mM; higher = more binding).
The Kd of `CAATACACTGTTATCAGACACAGCTGTCGAGCTACTCGTTCGGTTATCCGGCGGTATGAC (dsDNA)` is reported as 1230 ± 112 nM (PHO4; MITOMI; double-stranded DNA, one strand shown; not purified).
`TGGATCAATCGAGAATTCCGCGCAAGTGGTATGGATCAAGTCAATCGGTCC (dsDNA; 5'-amino-C6 primer)` gave a Kd of 46.1 ± 10.8 nM (T1, TOA1/TOA2 1-286; 1-122 (Saccharomyces cerevisiae); array; double-stranded DNA, one strand shown; TFIIA alone).
`GGGAGCAGGAGAGAGGUCAGAUGAACAAUGUAAAAUUGUGCAAGCCUAUCUUCCUAUGCGUGCUAGUGUGA (ssRNA; 2'-fluoro pyrimidines)` has a relative binding of -24.1 RU (TGM2; SPR; RNA; together with: MgCl2 5 mM; higher = more binding).

For quick reference, copied from above:
With `GGGTTGCGGCCGCTTGGG (dsDNA; blunt, 5'-phosphate)` the relative affinity was 1.6 fold (PARP1 full length assumed W589A (Homo sapiens, UniProt P09874); stopped-flow fluorescence anisotropy; double-stranded DNA, one strand shown; reference: wild type, lower = weaker affinity).
`B1 (human ECM1)` — result for “log2 fold change”: -0.21 (PP6C (human); co-immunoprecipitation, IP-MS; CYB5R4 knockout cells; concentration not given; reference: CYB5R4 knockout over parental).
